Results pooled from the literature.
Numbers after ± are the reported error.

Compound	test system	conditions	how to read	quantity	value
CCCC[C@H](NC(=O)COCCOCCNC(=O)CN1CCN(CC(=O)O)CCN(CC(=O)O)CC1)C(=O)N[C@H]1CC(=O)NCCCC[C@@H](C(N)=O)NC(=O)[C@H](Cc2c[nH]c3ccccc23)NC(=O)[C@H](CCCNC(=N)N)NC(=O)[C@@H](Cc2ccccc2)NC(=O)[C@H](Cc2c[nH]cn2)NC1=O [copper-64 labelled]	C57 mice, liver	intravenous, 0.37 MBq, 24 h		tissue uptake	1.21 ± 0.23 %ID/g
Cc1cc(-c2ccc(NC(=O)[C@H](CCCCNC(=O)CCN3C(=O)CC(SCCC(=O)N[C@H](Cc4ccccc4)C(=O)N[C@H]4CSSC[C@@H](C(=O)N[C@H](C(=O)O)[C@@H](C)O)NC(=O)[C@H]([C@@H](C)O)NC(=O)[C@H](CCCCN)NC(=O)[C@@H](Cc5c[nH]c6ccccc56)NC(=O)[C@H](Cc5ccc(O)cc5)NC4=O)C3=O)NC(=O)CN3CCN(CC(=O)O)CCN(CC(=O)O)CCN(CC(=O)O)CC3)c(C)c2)ccc1N=Nc1ccc2c(S(=O)(=O)O)cc(S(=O)(=O)O)c(N)c2c1O (some centres unmarked) [lutetium-177 labelled]	metastatic NET patients, liver metastases			residence time	0.59 ± 0.08 h
CCCC[C@H](NC(=O)CNC(=O)CNC(=O)CN1CCN(CC(=O)O)CCN(CC(=O)O)CC1)C(=O)N[C@H]1CC(=O)NCCCC[C@@H](C(N)=O)NC(=O)[C@H](Cc2c[nH]c3ccccc23)NC(=O)[C@H](CCCNC(=N)N)NC(=O)[C@@H](Cc2ccccc2)NC(=O)[C@H](Cc2c[nH]cn2)NC1=O [technetium-99m labelled]	C57 mouse, liver	iv, 0.037 MBq, 4 h		tissue uptake	1.43 ± 0.31 %ID/g
N=C(N)NCCC[C@@H]1NC(=O)[C@H](CCCCNC(=O)CNC(=O)CNC(=O)CNC(=O)CC[C@H](NC(=O)CNC(=O)CNC(=O)CNC(=O)CC[C@H](NC(=O)CN2CCN(CC(=O)O)CCN(CC(=O)O)CCN(CC(=O)O)CC2)C(=O)NCC(=O)NCC(=O)NCC(=O)N[C@@H](CCC(=O)NCC(=O)NCC(=O)NCC(=O)NCCCC[C@@H]2NC(=O)[C@@H](Cc3ccccc3)NC(=O)[C@H](CC(=O)O)NC(=O)CNC(=O)[C@H](CCCNC(=N)N)NC2=O)C(=O)NCC(=O)NCC(=O)NCC(=O)NCCCC[C@@H]2NC(=O)[C@@H](Cc3ccccc3)NC(=O)[C@H](CC(=O)O)NC(=O)CNC(=O)[C@H](CCCNC(=N)N)NC2=O)C(=O)NCC(=O)NCC(=O)NCC(=O)NCCCC[C@@H]2NC(=O)[C@@H](Cc3ccccc3)NC(=O)[C@H](CC(=O)O)NC(=O)CNC(=O)[C@H](CCCNC(=N)N)NC2=O)NC(=O)[C@@H](Cc2ccccc2)NC(=O)[C@H](CC(=O)O)NC(=O)CNC1=O [indium-111 labelled]	female athymic nu/nu mice, spleen	intravenous, 111 kBq, 72 h		tissue uptake	2.07 ± 0.24 %ID/g
C/C=C(/C)C(=O)O[C@H]1C(C)=C2[C@H]([C@@H]1OC(=O)CCCCCCC)[C@@](C)(OC(C)=O)C[C@H](OC(=O)CCCCCCCCCCCNC(=O)C[C@H](N)C(=O)N[C@@H](CCC(=O)N[C@@H](CCC(=O)N[C@@H](CCC(=O)N[C@@H](CCC(=O)O)C(=O)O)C(=O)O)C(=O)O)C(=O)O)[C@@]1(O)[C@H]2OC(=O)[C@@]1(C)O	human patients	intravenous infusion, 1 h infusion		Vss	5000 mL/m²
CCCC[C@H](NC(=O)CCCCCCCNC(=O)CN1CCN(CC(=O)O)CCN(CC(=O)O)CC1)C(=O)N[C@H]1CC(=O)NCCCC[C@@H](C(N)=O)NC(=O)[C@H](Cc2c[nH]c3ccccc23)NC(=O)[C@H](CCCNC(=N)N)NC(=O)[C@@H](Cc2ccccc2)NC(=O)[C@H](Cc2c[nH]cn2)NC1=O [copper-64 labelled]	C57 mice, muscle	intravenous, 0.37 MBq, 4 h		tissue uptake	0.03 ± 0.01 %ID/g
Cc1cc(-c2ccc(NC(=O)[C@H](CCCCNC(=O)CCOCCOCCC(=O)N[C@H](Cc3ccccc3)C(=O)N[C@H]3CSSC[C@@H](C(=O)N[C@H](C(=O)O)[C@@H](C)O)NC(=O)[C@H]([C@@H](C)O)NC(=O)[C@H](CCCCN)NC(=O)[C@@H](Cc4c[nH]c5ccccc45)NC(=O)[C@H](Cc4ccc(O)cc4)NC3=O)NC(=O)CN3CCN(CC(=O)O)CCN(CC(=O)O)CCN(CC(=O)O)CC3)c(C)c2)ccc1N=Nc1ccc2c(S(=O)(=O)O)cc(S(=O)(=O)O)c(N)c2c1O [lutetium-177 labelled]	patients with metastatic NETs, liver			residence time	3.28 ± 1.83 h
CCCC[C@H](NC(=O)[C@H](CC(N)=O)NC(=O)[C@H](CCCNC(=N)N)NC(=O)[C@@H](NC(=O)CNC(=O)[C@H](C)NC(=O)[C@H](CCCCNC(=O)CCC(=O)O[C@@H](C(=O)O[C@H]1C[C@@]2(O)[C@@H](OC(=O)c3ccccc3)[C@@H]3[C@]4(OC(C)=O)CO[C@@H]4C[C@H](O)[C@@]3(C)C(=O)[C@H](O)C(=C1C)C2(C)C)[C@@H](NC(=O)OC(C)(C)C)c1ccccc1)NC(=O)[C@H](C)NC(=O)[C@H](CCCNC(=N)N)NC(=O)[C@@H](NC(=O)CNC(C)=O)C(C)C)C(C)C)C(=O)N[C@@H](Cc1ccccc1)C(=O)N[C@@H](CCCCNC(=O)CCC(=O)O[C@@H](C(=O)O[C@H]1C[C@@]2(O)[C@@H](OC(=O)c3ccccc3)[C@@H]3[C@]4(OC(C)=O)CO[C@@H]4C[C@H](O)[C@@]3(C)C(=O)[C@H](O)C(=C1C)C2(C)C)[C@@H](NC(=O)OC(C)(C)C)c1ccccc1)C(=O)N[C@@H](CO)C(=O)N[C@@H](CCC(=O)O)C(=O)N[C@@H](CO)C(=O)N[C@@H](Cc1ccc(O)cc1)C(=O)O	CD-1 mouse, plasma	intravenous, 50 mg/kg, single dose		AUC	569 µM·h
N=C(N)NCCC[C@@H]1NC(=O)[C@H](CCCCNC(=O)CC[C@H](NC(=O)CC[C@H](NC(=O)CN2CCN(CC(=O)O)CCN(CC(=O)O)CCN(CC(=O)O)CC2)C(=O)N[C@@H](CCC(=O)NCCCC[C@@H]2NC(=O)[C@@H](Cc3ccccc3)NC(=O)[C@H](CC(=O)O)NC(=O)CNC(=O)[C@H](CCCNC(=N)N)NC2=O)C(=O)NCCCC[C@@H]2NC(=O)[C@@H](Cc3ccccc3)NC(=O)[C@H](CC(=O)O)NC(=O)CNC(=O)[C@H](CCCNC(=N)N)NC2=O)C(=O)NCCCC[C@@H]2NC(=O)[C@@H](Cc3ccccc3)NC(=O)[C@H](CC(=O)O)NC(=O)CNC(=O)[C@H](CCCNC(=N)N)NC2=O)NC(=O)[C@@H](Cc2ccccc2)NC(=O)[C@H](CC(=O)O)NC(=O)CNC1=O [indium-111 labelled]	female athymic nu/nu mice, U87MG tumour	intravenous, 111 kBq, 1 h		tissue uptake	7.98 ± 2.36 %ID/g
C=C1CC[C@H](OCCCNC(=O)CCOCCOCCOCCOCCOCCOCCOCCOCCOCCOCCOCCOCCOCCOCCOCCOCCOCCOCCOCCOCCOCCOCCOCCOCCOCCOCCOCCOCCOCCOCCOCCOCCOCCOCCOCCOCCNC(=O)CCN2C(=O)CC(SC[C@H](NC(=O)[C@H](Cc3ccccc3)NC(=O)[C@H](CC(N)=O)NC(=O)[C@H](Cc3c[nH]cn3)NC(=O)[C@@H](NC(=O)[C@H](CC(=O)O)NC(=O)[C@H](CCC(N)=O)NC(=O)[C@H](CC(C)C)NC(=O)[C@H](CCCCN)NC(=O)[C@H](CCCCN)NC(=O)[C@H](CCCNC(=N)N)NC(=O)[C@H](CC(C)C)NC(=O)[C@H](Cc3c[nH]c4ccccc34)NC(=O)[C@H](CCC(=O)O)NC(=O)[C@@H](NC(=O)[C@H](CCCNC(=N)N)NC(=O)[C@H](CCC(=O)O)NC(=O)[C@H](CCSC)NC(=O)[C@H](CO)NC(=O)[C@H](CC(N)=O)NC(=O)[C@H](CC(C)C)NC(=O)[C@H](Cc3c[nH]cn3)NC(=O)[C@H](CCCCN)NC(=O)CNC(=O)[C@H](CC(C)C)NC(=O)[C@H](CC(N)=O)NC(=O)[C@H](Cc3c[nH]cn3)NC(=O)[C@H](CCSC)NC(=O)[C@H](CC(C)C)NC(=O)[C@H](CCC(N)=O)NC(=O)[C@@H](NC(=O)[C@H](CCC(=O)O)NC(=O)[C@H](CO)NC(=O)[C@@H](NC(=O)[C@@H](N)CO)C(C)C)[C@@H](C)CC)C(C)C)C(C)C)C(N)=O)C2=O)C/C1=C/C=C1\CCC[C@]2(C)[C@@H]([C@H](C)CCCC(C)(C)O)CC[C@@H]12 (some centres unmarked)	cynomolgus monkey	subcutaneous, 20 µg/kg every other day, 21 days		Cmax	38.1 ng/mL
CC1=C(I)C(C)=[N+]2C1=C(c1ccc(OCCn3cc(CNC(=O)CSC[C@H](NC(=O)c4ccc(-c5nnc(C)nn5)cc4)C(=O)N[C@@H](CCCNC(=N)N)C(=O)N[C@@H](CCCNC(=N)N)C(=O)N[C@@H](CCCNC(=N)N)C(=O)N[C@@H](CCCNC(=N)N)C(=O)N[C@@H](CCCNC(=N)N)C(=O)N[C@@H](CCCNC(=N)N)C(=O)N[C@@H](CCCNC(=N)N)C(=O)N[C@@H](CCCNC(=N)N)C(N)=O)nn3)cc1)c1c(C)c(I)c(C)n1[B-]2(F)F		1 µM, added: DPBF, 525 nm light	baseline: rose bengal, erythrosine B	singlet oxygen quantum yield	0.55
